Measured values pooled from the literature.
Parts stem from different laboratories: compare values within a part only.
Sequence of UniProt P46098 (whole entry, looked up): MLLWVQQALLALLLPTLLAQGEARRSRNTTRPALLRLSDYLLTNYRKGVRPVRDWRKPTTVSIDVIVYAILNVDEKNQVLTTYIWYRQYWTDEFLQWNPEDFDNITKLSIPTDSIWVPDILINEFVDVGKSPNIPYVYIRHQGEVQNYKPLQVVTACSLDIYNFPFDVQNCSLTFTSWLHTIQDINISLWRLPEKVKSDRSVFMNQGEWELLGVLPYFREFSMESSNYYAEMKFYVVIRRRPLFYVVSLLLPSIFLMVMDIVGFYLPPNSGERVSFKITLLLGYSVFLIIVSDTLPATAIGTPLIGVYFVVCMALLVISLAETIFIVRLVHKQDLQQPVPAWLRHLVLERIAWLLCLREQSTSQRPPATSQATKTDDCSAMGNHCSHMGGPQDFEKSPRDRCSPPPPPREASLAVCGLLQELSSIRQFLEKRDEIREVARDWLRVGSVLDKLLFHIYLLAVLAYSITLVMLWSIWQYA

Set 1
SMILES: COc1ccc(-c2c(Nc3ccccn3)[nH]c3c(C4=CCCCC4)c(-c4ccccc4)nn3c2=O)cc1
Host: human patients
Medium: plasma
measured | dose | time | median concentration [ng/mL]
S-adenosylmethionine | 200 mg once daily | 8 h | 14.9
methionine | 200 mg once daily | 6 h | 117000
methionine | 100 mg once daily | 4 h | 84800
methionine | 100 mg once daily | 6 h | 80700
methionine | 100 mg once daily | 8 h | 76800
S-adenosylmethionine | 150 mg once daily | 6 h | 17.9
methionine | 400 mg once daily | 2 h | 79600

Set 2
Host: human
Medium: microsomes or S9
Concentration: 2 µM
Time: 0.5 h
Compound | remaining compound [%]
CCc1nc2cc(-c3ccc(OC)nc3)cnc2[nH]1 | 71.4
COC(=O)C(C)NC(=O)C12CC3(C)CC(C)(CC(C)(C3)C1)C2 (centres unmarked) | 0.0194
CCc1c[nH]c2ncnc(NCC(Cc3ccccc3)c3ccccn3)c12 (centres unmarked) | 0.114
Cc1cc(C)n(-c2ccc(C(=O)NCc3ccc(C)o3)cn2)n1 | 68.1
CCn1cc(S(=O)(=O)N2CCc3n[nH]c(=O)n3CC2)cn1 | 49.3
O=C(OCCCn1ccccc1=O)c1cncc2ccccc12 | 3.09
Cn1nccc1-c1ccnc2nc(Cc3ccc4c(c3)CCC(C)(C)O4)nn12 | 27.3

Set 3
Cell line: HaCaT
Concentration: 100 µM
Time: 60 h
SMILES | viability [%]
NC(=O)N1c2ccccc2CCc2ccccc21 | 142
CC1=NS(=O)(=O)c2cc(Cl)ccc2N1 | 124
Nc1nc(=O)[nH]cc1F | 129
CC[C@H](C)C[C@H](C)CCCCCCCCC(=O)N[C@H]1C[C@@H](O)[C@@H](NCCN)NC(=O)[C@@H]2[C@@H](O)CCN2C(=O)[C@H]([C@H](O)CCN)NC(=O)[C@H]([C@H](O)[C@@H](O)c2ccc(O)cc2)NC(=O)[C@@H]2C[C@@H](O)CN2C(=O)[C@H]([C@@H](C)O)NC1=O | 49.7
CC(=O)O[C@H]1Cc2ccccc2N(C(N)=O)c2ccccc21 | 148

Other studies, line by line
SMILES | target | effect on | technique | concentration | endpoint | result
CCOCCn1cc(C(=O)Nc2ccc(-n3nc(-c4cccnc4)cc3C(F)(F)F)cn2)ccc1=O | 5-hydroxytryptamine receptor 3A (HTR3A, Homo sapiens, UniProt P46098) | binding | radioligand binding | 10 µM | inhibition | 2.27%
